Measurements pooled from the literature.
Each numbered part is a random draw from the data of one study; scales do not carry over between parts. Substitutions count along the parent as printed.

Series 1
Target: FOS, bZIP domain (human)
Technique: DHFR protein complementation
Medium: yeast
Setting: single substitutions, most at no-binding floor
Relative to: wild-type JUN-FOS pair
Reading: higher = stronger binding
Measurement: binding fitness
Starting sequence: JUN, bZIP domain (human); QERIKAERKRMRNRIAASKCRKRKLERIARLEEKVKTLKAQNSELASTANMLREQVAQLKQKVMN; partner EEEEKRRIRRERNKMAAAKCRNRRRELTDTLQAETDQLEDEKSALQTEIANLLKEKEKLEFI
N42H: -0.765 natural log
T48I: -0.0925 natural log
K36D: -0.116 natural log
L52Q: -0.956 natural log
R30M: 0.0636 natural log
L45H: -1.35 natural log
T37I: -0.0195 natural log
E44I: -0.0938 natural log

Series 2
Target: Histone acetyltransferase KAT6A, winged helix 1, GST fusion (KAT6A, Homo sapiens, UniProt Q92794, residues 1-85)
Technique: protein binding microarray
Molecule type: double-stranded DNA, one strand shown
Medium: in vitro
Tested at: not given
Setting: 8-mer, flanks averaged, mean of 2 arrays, mostly near background
Relative to: not given
Reading: higher = stronger binding
Measurement: E-score
Construct (chain): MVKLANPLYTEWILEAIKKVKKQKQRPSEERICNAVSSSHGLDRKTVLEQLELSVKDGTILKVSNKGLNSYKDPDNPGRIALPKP
ATCCTACG: 0.00126
ATTATGCC: 0.00506
TCGCTCAA: 0.0396
CTCGGAAC: 0.0513
ACAGCTTA: -0.231
CCCAGTGC: -0.0926
ACGCGTCC: 0.31
AATAAGCT: 0.0306

Further values, each from its own experiment
P1: PafA, mature enzyme, eGFP fusion (Elizabethkingia meningoseptica, UniProt Q9KJX5); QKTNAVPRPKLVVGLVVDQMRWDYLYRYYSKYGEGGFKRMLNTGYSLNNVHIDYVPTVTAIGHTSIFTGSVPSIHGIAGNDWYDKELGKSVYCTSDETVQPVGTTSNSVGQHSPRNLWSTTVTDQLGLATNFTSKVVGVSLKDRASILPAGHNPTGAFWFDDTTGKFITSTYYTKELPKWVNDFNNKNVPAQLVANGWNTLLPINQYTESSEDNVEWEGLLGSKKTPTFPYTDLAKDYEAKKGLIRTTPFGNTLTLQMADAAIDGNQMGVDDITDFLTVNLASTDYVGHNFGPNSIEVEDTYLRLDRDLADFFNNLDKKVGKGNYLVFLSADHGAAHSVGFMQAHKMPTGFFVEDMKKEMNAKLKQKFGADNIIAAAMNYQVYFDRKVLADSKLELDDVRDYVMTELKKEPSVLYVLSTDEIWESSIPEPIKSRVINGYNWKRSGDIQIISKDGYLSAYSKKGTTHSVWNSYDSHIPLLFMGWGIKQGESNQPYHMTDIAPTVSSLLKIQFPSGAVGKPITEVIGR
PTBP1 (Homo sapiens, UniProt P26599) — cross-linked residues (ANAPC5 (Homo sapiens, UniProt Q9UJX4); cross-linking MS; cell fractions; with: DSSO): K454 to K189
P1 V189G — phosphate dissociation constant (inorganic phosphate, free oxyanion; microfluidic competitive inhibition; in vitro, cell-free expressed; not given, derived from inhibition constants, unchanged parent 615000 nM; lower = stronger binding): 525 µM
HBP1 (Homo sapiens, UniProt O60381) — cross-linked residues (ERMP1 (Homo sapiens, UniProt Q7Z2K6); cross-linking MS; cell fractions; with: DHSO): E478 to D108
HNRNPD (Homo sapiens, UniProt Q14103) — cross-linked residues (SCFD1 (Homo sapiens, UniProt Q8WVM8); cross-linking MS; cell fractions; with: DSSO): K197 to Y421
